Measurements gathered from unrelated publications.
Parts stem from different laboratories: compare values within a part only. Positions count from the first letter of the parent shown.

Set 1 — technique: DHFR PCA, deep sequencing; matrix: yeast; together with: (+)-ABA 2500 µM; relative to: wild-type fitted maximum; direction: higher = stronger binding; endpoint: relative binding score
Target: ABI1, truncated, D143A, DHFR fusion (Arabidopsis thaliana)
Setting: methotrexate growth selection, single substitutions
Starting sequence: PYL1, truncated, DHFR fusion (Arabidopsis thaliana); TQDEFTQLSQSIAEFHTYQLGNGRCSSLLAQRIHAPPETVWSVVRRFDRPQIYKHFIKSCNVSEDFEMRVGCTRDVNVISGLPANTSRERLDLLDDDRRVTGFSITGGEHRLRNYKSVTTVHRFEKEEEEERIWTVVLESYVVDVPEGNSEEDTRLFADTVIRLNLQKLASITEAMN
A35H: 65.8%
E89L: 2.55%
W134M: 106%
F5R: 103%
R123D: 101%
V44H: 4.73%
R90G: 61.9%
D3K: 95%
S117L: 13%
T120C: 65.3%
E109T: 102%
I133R: 101%

Set 2 — technique: protein binding microarray; molecule type: double-stranded DNA, one strand shown; matrix: in vitro; tested at: not given; relative to: not given; direction: higher = stronger binding; endpoint: E-score
Target: Histone acetyltransferase KAT6A, winged helix 1, GST fusion (KAT6A, Homo sapiens, UniProt Q92794, residues 1-85)
Setting: 8-mer, flanks averaged, mean of 2 arrays, mostly near background
Construct (chain): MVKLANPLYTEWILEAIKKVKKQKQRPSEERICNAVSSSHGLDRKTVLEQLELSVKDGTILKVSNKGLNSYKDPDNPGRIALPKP
ATCCCCCA: -0.203
ATGTAGTC: -0.255
CAAATCGG: 0.111
AGATGGCT: -0.106
ACACGTTA: -0.223
ATATGAAT: -0.106
AACGGTGG: 0.00504
ACCCTATC: -0.19

Set 3 — technique: RNA Bind-n-Seq; molecule type: RNA; matrix: in vitro; tested at: not given; relative to: input RNA pool; direction: higher = stronger binding; endpoint: bound/input enrichment
Target: RING finger protein unkempt homolog, zinc fingers 1-6, GST-SBP tag (UNK, Homo sapiens, UniProt Q9C0B0, residues 30-357)
Chain of UniProt Q9C0B0 (30-357, looked up): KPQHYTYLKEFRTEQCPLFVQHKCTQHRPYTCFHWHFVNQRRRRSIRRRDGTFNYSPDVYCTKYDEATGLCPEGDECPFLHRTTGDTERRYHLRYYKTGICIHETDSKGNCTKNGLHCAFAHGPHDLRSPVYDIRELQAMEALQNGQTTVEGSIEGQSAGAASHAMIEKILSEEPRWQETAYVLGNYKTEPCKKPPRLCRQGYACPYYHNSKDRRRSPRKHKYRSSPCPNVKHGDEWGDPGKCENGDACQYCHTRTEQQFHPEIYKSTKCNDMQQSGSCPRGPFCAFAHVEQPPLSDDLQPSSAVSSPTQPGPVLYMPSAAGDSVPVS
Setting: RNA with constant flanks, human and mouse sites, ends assumed
Constant ends, left off below: GGGAGUUCUACAGUCCGACGAUC … CAACAGAGGAUUGAGCAUCA
GCUGGAUAUGGAGACAUUUACCUCAAUGCUGGUCCCAUGUUGUUUAGUGGAGACAAGGACCAUAGAUUUGAAUAUAGCCAUGGUCCUAUCACAGUCCUCACAAACAGCAAUGACCCUUCC: 0.117 ratio
UAGCAAGUUGUCUACUGUUUGAUCAUAAUCCUUGGCGAAAUUGCAUUUUGACCAAAGUUGAAGGACUGUUUCUACUUGUGGACCAAUCCUGUCCUGUUUUCUAGUAACGUAUAGGACAAU: 0.151 ratio
UUUUUGUACUUUGUAGACUCUGGAGCCCACUGUCCUCUCGGCUCUUUGAAGCUGUGCCCACUACUGCUUUUGUAACUGGAGUCUUUUAACUUCCAUGACGGCACCGCCUGCCGUAUGUUC: 0.164 ratio
GUGGGAGAGUGGGGAGCCCGUCUUCUGCUGAGUGCUGCCGCCCCUUCCCAGGACAGCGGAGGUGGAACUUCGUCGCGCUGCAACCCCCGGCUCGGGAUCCUGGGGCGUCCUUUGGCAGUC: 0.138 ratio
AAAUAUCCUCAGCUGUUCCAAGUGACACUGGAUAUAGAAGUCCAGCCCCAAGACAAAGUGAUCGACUUAACUCCACCAUGGGAACACUACUGCACAAAAGAUGUGAACCCCAGCAUCCUC: 0.212 ratio
GUACUAUGUCAAAUCCUAUCUCAAUAAAUAGCAAUUCAUUUAACUCUCUUAGCUGCUUUUUAGGUAGAUAUGUCUUUGUGCCCACUUUAUACAAGAGGCAGCUAAAAGAGUAUAGCAGUA: 11.8 ratio
CAACAGACCUGCCCACUGUGCAAGUUCAACGUCCUGGGGAACCACUACUCAGAUGACUAACUGCCCCAGUGGAAAGUCUGCAGUUCGGGACGGACCCUUCCCAGCCUACACUACAGGAGA: 0.112 ratio

Set 4 — target: CCNE2, cyclin fold, Cln2 fusion (human); technique: yeast growth competition, sequencing; matrix: yeast; setting: strong parent motif; relative to: not given; direction: higher = stronger binding; endpoint: normalised enrichment score
Starting sequence: WEE1 docking peptide (human); HKTFRKLRLFDTP
T12Q: -0.0382
K6E: 0.691
T3V: 2.31
T12G: 1.4
H1A: -0.138
L7K: 0.885
D11V: 0.681
L9C: 0.754
K6D: 1.03

For quick reference, copied from above (set 2):
ACACGTTA: -0.223
ATGTAGTC: -0.255
ATATGAAT: -0.106
CAAATCGG: 0.111
